Published values gathered from unrelated publications.
Protocols differ between the studies behind these lines. Several values in a cell are separate wells, animals, samples, runs or records. ± marks the error that the study gave.

CCCC[C@H](NC(=O)CNC(=O)CNC(=O)CN1CCN(CC(=O)O)CCN(CC(=O)O)CCN(CC(=O)O)CC1)C(=O)N[C@H]1CC(=O)NCCCC[C@@H](C(N)=O)NC(=O)[C@H](Cc2c[nH]c3ccccc23)NC(=O)[C@H](CCCNC(=N)N)NC(=O)[C@@H](Cc2ccccc2)NC(=O)[C@H](Cc2c[nH]cn2)NC1=O [copper-64 labelled]
uptake ratio (female C57 mouse, B16/F1 melanoma; intravenous, 0.037 MBq, 2 h; reference: tumour over lung): 1.32

NC12CNCCNCC(NCc3ccc(CNC(=O)CCCC(=O)NCc4ccc(-c5nncnn5)cc4)cc3)(CNCCNC1)CNCCNC2.[64Cu+2]
mean absorbed dose (OLINDA dosimetry; lower large intestine wall; pretargeting, 48-h interval): 0.0456 rad/mCi

C#CCN(C(=O)OCc1ccc(B2OC(C)(C)C(C)(C)O2)cc1)[c-]1cccc1.[Fe+2].c1cc[cH-]c1
E1/2 (cyclic and differential pulse voltammetry; acetonitrile; 23 °C; reference: ferrocene/ferrocenium): -10 mV

CCCC[C@H](NC(C)=O)C(=O)N[C@H]1CC(=O)NCCCC[C@@H](C(=O)N[C@@H](C(=O)N2CCC[C@@H]2C(N)=O)C(C)C)NC(=O)[C@H](Cc2c[nH]c3ccccc23)NC(=O)[C@H](CCCN=C(N)N)NC(=O)[C@@H](Cc2ccc3ccccc3c2)NC(=O)[C@@H]2CCCN2C1=O
plasma histamine (healthy dogs, plasma; subcutaneous, 2.25 mg/kg per day, day 28, 24 h post-dose, median): 17 ng/mL

CCn1c(=O)n(CCO)c(=O)c2c1nc(/C=C/c1ccc(OC)c(OC)c1)n2C
metabolite to parent Cmax ratio (healthy humans, plasma; oral, 40 mg, added: rifampin 600 mg/day): 0.138

C[C@H](Oc1cc(-c2cnn(C3CCN(CC[18F])CC3)c2)cnc1N)c1c(Cl)ccc(F)c1Cl
tracer uptake (PET imaging; nude mouse, brain; iv, 5 min post injection): 6.6 ± 2.6 %ID/cc

COC(=O)/C=C/C(=O)c1ccc(OC)cc1
recovery (LC-MS/MS; rat plasma; 2.5 ng/mL, 15 days, -70 °C, long-term storage): 97.2 ± 8.44%

CC(C)[C@H](NC(=O)[C@@H]1CCCN1C(=O)[C@H](CCCNC(=N)N)NC(=O)[C@H](CS)NC(=O)[C@H](Cc1c[nH]c2ccccc12)NC(=O)[C@H](CCCNC(=N)N)NC(=O)[C@@H](Cc1ccccc1)NC(=O)[C@H](Cc1c[nH]cn1)NC(=O)[C@H](CCC(=O)O)NC(=O)[C@H](CS)NC(=O)[C@H](CS)NC(=O)[C@@H]1CC(=O)N[C@@H](CCCNC(=N)N)C(=O)NCC(=O)N[C@@H](CC(=O)O)C(=O)N[C@H](Cc2ccc(O)cc2)C(=O)N1)C(N)=O [technetium-99m labelled]
tumour to tissue ratio (C57 mouse, female, B16/F1 melanoma; intravenous, 0.037 MBq, 24 h; reference: tumour over kidneys): 2.05

C#CCOc1ccc(/C=C2\SC(=O)N(CC(=O)NCc3ccccc3)C2=O)cc1
Kirkwood-Buff integral G2,3 (inverse Kirkwood-Buff integrals; binary solvent mixture; 298.15 K, mole fraction x1 0.25): -411 cm³/mol

CC(C)(Sc1ccncc1-c1ccc(C#N)c2ccccc12)C(=O)OC1OC(C(=O)O)C(O)C(O)C1O (stereo not shown)
renal clearance decrease (urine; oral, 15 mg, severe renal impairment; reference: normal renal function): 90%

O=C1c2sc(-c3ccc(N4CCC(F)C4)nc3F)nc2CCN1c1cccnc1 (stereo not shown)
peak brain uptake (PET imaging; rhesus monkey, whole brain; intravenous bolus): 2.7 % injected dose

CC(C)c1cnc(-c2cc(Cl)ccc2F)cc1Nc1ccncc1C(=O)NC(CO)CO
patients with treatment-related adverse event (monotherapy, measured: headache; human patients; oral, dose not given, grade 5, phase I A): 0%

CCCC[C@@H]1NC(=O)[C@@H](NC(=O)[C@H](CCC(=O)O)NC(=O)CNC(=O)CN2CCN(CC(=O)O)CCN(CC(=O)O)CCN(CC(=O)O)CC2)CCCCNC(=O)C[C@@H](C(N)=O)NC(=O)[C@H](C(C)C)NC(=O)[C@@H]2CCCN2C(=O)[C@H](CCCNC(=N)N)NC(=O)CNC(=O)[C@H](Cc2c[nH]c3ccccc23)NC(=O)[C@H](CCCNC(=N)N)NC(=O)[C@@H](Cc2ccccc2)NC(=O)[C@H](Cc2c[nH]cn2)NC(=O)[C@H](CCC(=O)O)NC1=O [gallium-67 labelled]
tissue uptake (C57 mice with B16/F1 melanoma, bone; intravenous, 0.037 MBq, 2 h): 0.1 ± 0.01 %ID/g

CCCC[C@H](NC(=O)[C@H](C)NC(=O)[C@H](CO)NC(=O)[C@H](CC(C)C)NC(=O)[C@H](CCCCN)NC(=O)[C@]1(C)CCCC=CCCCCCC[C@@](C)(NC(=O)[C@H](CCC(=O)O)NC(=O)[C@H](CC(C)C)NC(=O)[C@]2(C)CCCC=CCCCCCC[C@@](C)(NC(=O)[C@H](CC(C)C)NC(=O)[C@H](CS)NC(=O)[C@H](CCC(N)=O)NC(=O)[C@H](C)NC(=O)[C@H](CCCNC(=N)N)NC(C)=O)C(=O)N[C@@H](CCC(N)=O)C(=O)N[C@@H](CCCNC(=N)N)C(=O)N[C@@H](CCC(=O)O)C(=O)N[C@@H](CCCC)C(=O)N[C@@H](C(C)C)C(=O)N[C@@H](CCC(N)=O)C(=O)N2)C(=O)N[C@@H](CCC(N)=O)C(=O)N[C@@H](CC(C)C)C(=O)N[C@@H](C(C)C)C(=O)N[C@@H](CC(C)C)C(=O)N[C@@H](CCC(=O)O)C(=O)N[C@@H](CCCCN)C(=O)N1)C(=O)N[C@@H](CCC(N)=O)C(=O)N[C@@H](C)C(=O)N[C@@H](Cc1c[nH]cn1)C(N)=O
alpha-helicity (circular dichroism; sodium acetate buffer; 2.5 to 10 µM, pH 3.6, 20 °C): 74%

Oc1ccc2ccccc2c1/N=N/c1ccccc1
measured concentration (rat whole blood QC samples; 5.0 µg/L, 4 h, room temperature, short-term stability): 4.92 µg/L

COC[C@@H](CC(C)C)NC(=O)c1ccc(CO)c(C)c1
metabolite peak area (LC-MS; human liver microsomes; 10 µM of parent drug, 60 min, pH 7.4, added: NADPH; reference: parent drug at time zero): ~21.2%

COc1ccc(-c2csc(N/N=C(\C)c3cc(O)cc(O)c3)n2)cc1
recovery (equilibrium dialysis; human plasma, male; 3 µM, 5 h, pH 7.4): 65.7% and 67.8% and 64.8% and 71.8%

COc1cc(-c2nc3ccc(C(=O)NCCCN4CCN(C(=O)c5ccccc5)CC4)cc3n2C2CCC2)cc(OC)c1OC
dynamic solubility: 128 µM

CC(=O)N[C@H](CC(=O)O)C(=O)N[C@H](Cc1c[nH]c2ccccc12)C(=O)N[C@H](Cc1ccccc1)C(=O)N[C@H](CCCCN)C(=O)N[C@H](C)C(=O)N[C@H](Cc1ccccc1)C(=O)N[C@H](Cc1ccc(O)cc1)C(=O)N[C@H](CC(=O)O)C(=O)N[C@H](CCCCN)C(=O)N[C@@H](C(=O)N[C@H](C)C(=O)N[C@H](CCC(=O)O)C(=O)N[C@H](CCCCN)C(=O)N[C@H](Cc1ccccc1)C(=O)N[C@H](CCCCN)C(=O)N[C@H](CCC(=O)O)C(=O)N[C@H](C)C(=O)N[C@H](Cc1ccccc1)C(N)=O)C(C)C
AUC(0-t) (statin-treated high-risk CHD men, plasma; oral, 300 mg daily, day 13, 0 to 8 h, mean, undetectable set to 0): 0.0227 µg·h/mL

N=C(N)NCCC[C@@H]1NC(=O)[C@H](Cc2c[nH]c3ccccc23)NC(=O)[C@@H](CC2CCCCC2)NC(=O)[C@@H]2CCCN2C(=O)[C@@H](NC(=O)CCc2ccccc2)CCCNC1=O
apparent distributional clearance (C57BL/6J mice, spinal cord; oral, 1 mg/kg, two-compartment model): < 0.001 ng/(min·ng/g)

Cc1ccc(/N=N/c2c(O)ccc3ccccc23)c(C)c1
measured concentration (rat whole blood QC samples; 16.0 µg/L, 4 h, room temperature, short-term stability): 16 µg/L

NS(=O)(=O)c1ccc(-n2nc(C(F)(F)F)c(O)c2-c2ccc(F)cc2F)cc1
metabolite formation rate (substrate; human liver microsomes; 20 µM, 0 to 30 min, pH 7.4): 14 pmol/min/mg

CC(C)(Sc1cc[n+]([O-])cc1-c1ccc(C#N)c2ccccc12)C(=O)OC1OC(C(=O)O)C(O)C(O)C1O (stereo not shown)
renal clearance ratio (0-72 h) (adult men, urine; oral, 15 mg verinurad, mild renal impairment; reference: impaired over normal renal function): 73.9%

Cc1ccc(-c2ccc(-c3cc4sccc4o3)cn2)nc1
fluorescence lifetime (TCSPC; MeOH): 1.82 ns

CC(C)[C@H](NC(=O)CNC(=O)[C@H](CCC(N)=O)NC(=O)[C@H](C)N)C(=O)O
time of quantifiable concentrations (human; 10 mg/kg, multiple dosing; up to): ≤ 30 min

Oc1c(Br)cc(Br)c2nc3cc(I)ccc3nc12
hemolysis (human red blood cells; 200 µM, 1 h, pH 7.2, 37 °C): ≤ 1%

CN(C)C(=O)c1ccnc(N2Cc3cn(Cc4ccc(F)cc4F)nc3C2)n1
effect size d (novel object recognition, measured: discrimination index; wild-type mice; oral, 5 mg/kg daily, from 1 week before test, unit not given; reference: vehicle): 0.03

Cc1ccc(OCC(=O)N(Cc2cccs2)c2ccn[nH]2)cc1
Tmax (male beagle dog, plasma; intravenous, 1.0 mg/kg): 7.8 min

[11CH3]c1ccc2nc(C3CCC3)n(-c3ccc4[nH]ncc4c3)c2n1
absorbed radiation dose (human male, kidneys): 5.6 µSv/MBq

CC(C)(C)NCC(SS(=O)(=O)O)c1ccccc1 (stereo not shown)
metabolic rate constant (glucuronidation; CD1 mouse, female, liver microsomes; 4 µM, pH 7.4, added: UDPGA): 0.07 h⁻¹

CC(C)(O)c1ncc([S@](N)(=O)=NC(=O)Nc2c3c(cc4c2CCC4)CCC3)s1
renal clearance (healthy human, urine and plasma; oral, day 14, multiple ascending dose): 0.113 to 0.152 mL/min

O=C(Nc1nccs1)C(c1cc(F)ccc1O)N1Cc2ccccc2C1=O (stereo not shown)
recovery (mouse plasma; 1500 ng/mL, 24 h, room temperature, short-term stability, high QC): 96 ± 4.3%

CCCCCCCCCCCCCCCC(=O)N[C@@H](CCCCN)C(=O)N[C@H](C(=O)N[C@H](C(=O)N[C@@H](CCCCN)C(=O)N[C@@H](CO)C(=O)O)[C@@H](C)O)[C@@H](C)O
amount retained in stratum corneum (LC-MS/MS; hairless mouse, skin, Franz cell; 50 µg/cm^2 applied, 24 h): 4.2 ± 0.7 µg/cm²

O=C([O-])CN1CCN(CC(=O)[O-])CCN(CC(=O)NC[C@H]2CC[C@H](C(=O)N[C@H](Cc3cnc4ccccc4c3)C(=O)NCCCC[C@H](NC(=O)N[C@@H](CCC(=O)O)C(=O)O)C(=O)O)CC2)CCN(CC(=O)[O-])CC1.[64Cu+2]
absorbed dose (PET/CT, OLINDA/EXM dosimetry; healthy human volunteers, right colon): 0.0307 mGy/MBq

Some of these lines once more:
CC(C)[C@H](NC(=O)CNC(=O)[C@H](CCC(N)=O)NC(=O)[C@H](C)N)C(=O)O
time of quantifiable concentrations (human; 10 mg/kg, multiple dosing; up to): ≤ 30 min

Oc1c(Br)cc(Br)c2nc3cc(I)ccc3nc12
hemolysis (human red blood cells; 200 µM, 1 h, pH 7.2, 37 °C): ≤ 1%

CN(C)C(=O)c1ccnc(N2Cc3cn(Cc4ccc(F)cc4F)nc3C2)n1
effect size d (novel object recognition, measured: discrimination index; wild-type mice; oral, 5 mg/kg daily, from 1 week before test, unit not given; reference: vehicle): 0.03

Cc1ccc(OCC(=O)N(Cc2cccs2)c2ccn[nH]2)cc1
Tmax (male beagle dog, plasma; intravenous, 1.0 mg/kg): 7.8 min

[11CH3]c1ccc2nc(C3CCC3)n(-c3ccc4[nH]ncc4c3)c2n1
absorbed radiation dose (human male, kidneys): 5.6 µSv/MBq

CC(C)(C)NCC(SS(=O)(=O)O)c1ccccc1 (stereo not shown)
metabolic rate constant (glucuronidation; CD1 mouse, female, liver microsomes; 4 µM, pH 7.4, added: UDPGA): 0.07 h⁻¹
